Results collected from several papers.
A part holds a random share of what one study measured. Positions count from the first letter of the parent shown.

Series 1
Target: Ras GTPase-activating protein-binding protein 1, RRM domain (G3BP1, Homo sapiens, UniProt Q13283)
UniProt Q13283, sequence (whole entry, looked up): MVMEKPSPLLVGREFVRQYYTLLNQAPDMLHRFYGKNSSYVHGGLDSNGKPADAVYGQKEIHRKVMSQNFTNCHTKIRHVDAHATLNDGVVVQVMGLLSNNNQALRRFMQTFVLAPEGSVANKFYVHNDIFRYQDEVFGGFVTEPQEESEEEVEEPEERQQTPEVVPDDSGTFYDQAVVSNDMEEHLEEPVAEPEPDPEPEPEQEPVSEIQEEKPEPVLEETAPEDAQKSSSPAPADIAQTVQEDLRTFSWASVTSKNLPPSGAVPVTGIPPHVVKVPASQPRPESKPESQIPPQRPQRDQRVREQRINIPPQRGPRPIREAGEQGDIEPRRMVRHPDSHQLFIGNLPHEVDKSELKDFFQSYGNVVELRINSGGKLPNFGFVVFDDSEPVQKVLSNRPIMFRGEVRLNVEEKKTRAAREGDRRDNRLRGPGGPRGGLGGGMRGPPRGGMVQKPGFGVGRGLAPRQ
Technique: RNA Bind-n-Seq
Form: RNA
Medium: in vitro
Concentration: 1 µM
Setting: whole 134-nt RNA, ends assumed
Together with: 150 mM KCl
Baseline: input library
Reading: higher = stronger binding
Quantity: log2 enrichment
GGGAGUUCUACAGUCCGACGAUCUCAAGUCCUGUGCUACACAUCGUAUGUACCGAAUCGGGGUUGGGUUGGGUUGGGGAAAGUAUUAUGUUACGCCGUUCGGAUCUGCACUUCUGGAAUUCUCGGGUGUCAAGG: 0.742
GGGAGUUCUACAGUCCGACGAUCAAGUCCUGUGCUACACAUCGUAUGUACCGAAUCGGUUUUGGGUUUUGGGGUUUUGGAAAGUAUUAUGUUACGCCGUUCGGAUCUGCACUUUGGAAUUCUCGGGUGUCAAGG: -0.212
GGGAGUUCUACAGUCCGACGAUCCAAGUCCUGUGCUACACAUCGUAUGUACCGAAUCGGGAAAGGGAAAGGGAAAGGGGAAAGUAUUAUGUUACGCCGUUCGGAUCUGCACUUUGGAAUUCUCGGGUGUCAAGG: 0.631
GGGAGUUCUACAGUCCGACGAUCUGGGAGGUGGAUUUUGUUUAUUUUUUUAGCUCAUUUCCAGGAGUGGGAAUUUUUUUUUAAUAUGUGUCAUGAAUAAAGUUGUUUUUGAAAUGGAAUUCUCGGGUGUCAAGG: 2.42
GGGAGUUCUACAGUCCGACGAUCACCAUGCAGGUGGGCAUCUUUGGGAAGUGGAAAAAGGGGGGGAUAGGGAGGGGGGUAACACUUUGGGAACAGGUGGUCCCAGGUCGUUUCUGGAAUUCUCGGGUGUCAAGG: -0.531
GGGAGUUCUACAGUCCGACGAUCUCCUGUGCUACACAUCGUAUGUACCGAAUCGGGGAAAAAGGGGAAAAAGGGAAAAAGGGAAAGUAUUAUGUUACGCCGUUCGGAUCUGCAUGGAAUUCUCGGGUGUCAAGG: 0.0804
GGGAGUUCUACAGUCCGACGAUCUCCUGUGCUACACAUCGUAUGUACCGAAUCGGGUUUUUGGGAAAAAGGGAAAAAAAGGGAAAGUAUUAUGUUACGCCGUUCGGAUCUGCAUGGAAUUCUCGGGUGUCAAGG: 0.0243
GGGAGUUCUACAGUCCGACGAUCCUCAAGUCCUGUGCUACACAUCGUAUGUACCGAAUCGGGGAAGGAAGGGGAAGGAAAGUAUUAUGUUACGCCGUUCGGAUCUGCACUUCCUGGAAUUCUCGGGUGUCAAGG: -0.204
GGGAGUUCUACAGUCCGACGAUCGUCCUGUGCUACACAUCGUAUGUACCGAAUCGGGGUUUUUUUGGGGAAAGGGGUGGGGAAAGUAUUAUGUUACGCCGUUCGGAUCUGCACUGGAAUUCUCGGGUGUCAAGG: 0.565
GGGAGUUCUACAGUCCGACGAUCUCCUGUGCUACACAUCGUAUGUACCGAAUCGGGAAAAAAGGGAAAAAAGGGGAAAAAAGGAAAGUAUUAUGUUACGCCGUUCGGAUCUGCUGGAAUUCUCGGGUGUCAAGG: -0.0249
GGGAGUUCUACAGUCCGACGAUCUGGCCCUGGUGGCAUGCGGGGAGGAAGAGGUGGCUUCAUGGAUCGUGGUGGUCCCGGUGGAAUGUUCAGAGGUGGCCGUGGUGGAGACAGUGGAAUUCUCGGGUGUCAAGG: 0.964
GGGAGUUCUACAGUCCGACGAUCCACAGACAACACGCACCCACACAGACACAGAGGGAAGGGGUUGGGAUGGGGACAGGGUGCACAGCAGGGCGGGGUAGGACCCCAGCCACUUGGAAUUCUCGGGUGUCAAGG: -0.346
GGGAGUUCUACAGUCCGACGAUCUGGCCCUGGUGGCAUGCGGGGAGGAAGAGGUGGCCUCAUGGAUCGUGGUGGUCCCCGUGGAAUGUUCAGAGGUGGCCGUGGUGGAGACAGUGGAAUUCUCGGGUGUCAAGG: 0.622
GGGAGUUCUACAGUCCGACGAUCCAAGUCCUGUGCUACACAUCGUAUGUACCGAAUCGGUUUUGGUUUUGGUUUUGGGGAAAGUAUUAUGUUACGCCGUUCGGAUCUGCACUUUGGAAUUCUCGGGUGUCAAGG: -0.281

Series 2
Target: Interferon regulatory factor 3, full length, phosphomimetic (IRF3, Homo sapiens, UniProt Q14653, residues 1-427, S386D/S396D/S398D/S402D/T404D/S405D)
Technique: protein-binding microarray
Form: double-stranded DNA, one strand shown
Medium: in vitro
Concentration: 2540 nM top
Setting: 60-bp whole probe
Together with: salmon DNA 0.4 mg/ml
Baseline: random background probes
Reading: higher = stronger binding
Quantity: fitted relative affinity
Constant ends, left off below: GCCTAGCAC … GTCTTGATTCGCTTGACGCTGCTG
Target sequence (chain): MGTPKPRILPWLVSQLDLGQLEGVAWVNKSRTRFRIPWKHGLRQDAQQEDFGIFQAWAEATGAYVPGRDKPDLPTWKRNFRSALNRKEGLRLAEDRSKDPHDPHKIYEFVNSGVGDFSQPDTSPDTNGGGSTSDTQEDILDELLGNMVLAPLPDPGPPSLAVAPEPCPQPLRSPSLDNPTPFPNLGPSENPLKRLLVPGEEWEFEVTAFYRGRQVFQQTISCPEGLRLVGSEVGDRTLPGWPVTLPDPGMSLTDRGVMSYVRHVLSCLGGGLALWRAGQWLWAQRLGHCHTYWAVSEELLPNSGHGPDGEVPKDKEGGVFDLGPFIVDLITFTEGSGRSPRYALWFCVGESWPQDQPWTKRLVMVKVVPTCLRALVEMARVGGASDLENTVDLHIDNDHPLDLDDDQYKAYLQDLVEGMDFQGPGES
TTAGACATCGGGACTGGATTAGTGCTA: -0.661 z-score
TCAAGACTTGATTTTGGACTGTGCTAG: -0.674 z-score
TCATCTCTGGGTCGGGCACTGTGCTAG: 0.352 z-score
TCACATTGAGATTTCCAACTGTGCTAG: 0.792 z-score
GACGCTATCGACTATCGGGACGTGCTA: -0.124 z-score
GTCGGACTGGACACTGGGGACGTGCTA: -0.377 z-score
TCACCTTCAGCTCTAGGACTGTGCTAG: 0.145 z-score
ATAGATCTCAGTATCGATTAGTGCTAG: 1.09 z-score
AAGTGTGCCCATCTCTGCTCGTGCTAG: 1.25 z-score
TTAGAACTGCGGTATCGATTAGTGCTA: 0.322 z-score
ATAGGTTTCGGTCTCGGTTAGTGCTAG: 8.86 z-score
GACGATATCGAGTATCGAGACGTGCTA: 0.233 z-score
GACGGTCTCCTTCTACTGACGTGCTAG: 3.13 z-score
CTAGGTATCGGGACTGGGTTAGTGCTA: 1.28 z-score
TTACATCTCAGTATCGATTAGTGCTAG: 1.34 z-score
TCATCTTTATGTACTCTCACTGTGCTA: 0.94 z-score
TCATAAAACAACTTTCAAACTGTGCTA: 0.128 z-score
TCATCCCTTTCTCTCTGACTGTGCTAG: 3.46 z-score
GACGATCTCAGTCTCGAGAAGTGCTAG: 0.639 z-score
ATAGATTTCGGGTTTCGATTAGTGCTA: 3.42 z-score
TGGTCTCTAGTTAGAGAACTGTGCTAG: 0.196 z-score
TTAGAACCGAGACTGGATTAGTGCTAG: -0.0475 z-score
TTAGGTTTCGGTTCCGGATAGTGCTAG: 11.1 z-score
GACGATTTCGGGACTGGGGACGTGCTA: 1.81 z-score

Series 3
Target: RING finger protein unkempt homolog, zinc fingers 1-6, GST-SBP tag (UNK, Homo sapiens, UniProt Q9C0B0, residues 30-357)
UniProt Q9C0B0, sequence (30-357, looked up): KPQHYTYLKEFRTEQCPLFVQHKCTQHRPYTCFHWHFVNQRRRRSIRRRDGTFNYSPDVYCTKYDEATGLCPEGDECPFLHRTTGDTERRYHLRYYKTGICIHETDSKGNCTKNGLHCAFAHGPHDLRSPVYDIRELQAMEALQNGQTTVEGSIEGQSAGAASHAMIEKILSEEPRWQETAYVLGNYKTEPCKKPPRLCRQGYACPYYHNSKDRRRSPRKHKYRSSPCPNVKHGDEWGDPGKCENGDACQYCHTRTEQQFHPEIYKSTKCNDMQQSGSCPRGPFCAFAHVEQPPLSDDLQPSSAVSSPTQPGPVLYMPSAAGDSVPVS
Technique: RNA Bind-n-Seq
Form: RNA
Medium: in vitro
Concentration: not given
Setting: RNA with constant flanks, human-mouse chimeric sites, ends assumed
Baseline: input RNA pool
Reading: higher = stronger binding
Quantity: bound/input enrichment
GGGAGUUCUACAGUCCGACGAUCGUUGCCAGCUUCCGGUUCCGUUGGGCUCGGUUCUCUCCUGAGCUACGGUCCCUGGCACUCUCAAUCCGCCAUCCAACAAACAUGGAUCAGGUAAUGCAGUUUGUGGAUGAGCCAAGUCAGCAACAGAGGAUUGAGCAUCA: 0.0529 ratio
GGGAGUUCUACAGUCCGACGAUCUGGCGCCUGCGCUCCCCACUCGUGUUUUUAAGUGUAUAAGAUGUAUAUACAUGUAUUUGUAAUAGAUCUUUUGUUACAUAAUGCUGAAAUGCUACUGGAGAUUAUGAAAAAUGUUUCAAUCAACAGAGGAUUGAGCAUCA: 0.127 ratio
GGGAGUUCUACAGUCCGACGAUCGAUAAGAAAAGCUUGUUGGAGACCCGCUUGCACAUCACUGGUAGAGACCUGAGGUGUCAAAUAGCUGAAACUUUCGGAUUUCAAGAAAAUUAUAUCAAGAUCGUAAUAAAUAAGAAACAGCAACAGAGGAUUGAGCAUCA: 0.656 ratio
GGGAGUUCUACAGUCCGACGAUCAUCCAGUACUCCAAUCACAAAGAACUAAAGACAGAUAAUACAUUAAACCAACGUGCUCAAGUAGUUCUUCAAGCUGUGACAGCUGUCCAGACAGCAAAUACUCCUCUUAGUGGCACCACACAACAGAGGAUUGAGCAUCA: 0.385 ratio
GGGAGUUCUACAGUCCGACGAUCAACUUUGUGCAUCGGUUUCCCUUUGUAGCUGUUUCAAUUGGCUUCCUUGUGAAUAAAGAGAUGGAGUUUGGAAUUGUGUACAGCUGUGUGGAAGAUAAGAUGUACACCGGCAGGAAAGGGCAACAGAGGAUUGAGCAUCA: 0.468 ratio
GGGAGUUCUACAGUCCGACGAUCUGGCGCCUCCCAUUUUUACUCGUGUUUUUAAGUGUAUUUUUAUAAGAUACAUGUAUUUACAAUUGAGCUUUUGUUACUAUAAUACUGAAUGCUACUGGAGAUUAUGAAAAAUGUUUCAAUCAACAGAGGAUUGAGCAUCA: 0.22 ratio

Series 4
Target: CCND2, cyclin fold, Cln2 fusion (human)
Technique: yeast growth competition, sequencing
Medium: yeast
Setting: weak parent motif
Baseline: not given
Reading: higher = stronger binding
Quantity: normalised enrichment score
Parent: GMNC docking peptide (human); KNAKRNLSSEFAN; partner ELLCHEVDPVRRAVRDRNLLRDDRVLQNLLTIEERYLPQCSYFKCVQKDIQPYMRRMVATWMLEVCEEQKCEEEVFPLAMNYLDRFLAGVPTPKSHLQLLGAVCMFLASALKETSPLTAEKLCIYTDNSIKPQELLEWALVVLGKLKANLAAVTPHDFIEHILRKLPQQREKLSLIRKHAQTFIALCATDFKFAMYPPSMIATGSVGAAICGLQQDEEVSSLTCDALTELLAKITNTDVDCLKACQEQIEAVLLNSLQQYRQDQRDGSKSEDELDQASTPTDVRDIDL
N6H: -0.313
R5K: 0.206
R5T: -0.146
E10P: -0.258
S8P: 0.0676
E10D: -0.334
N2T: 0.621
A12E: 0.441
S8D: 0.011
K4S: 0.0974
K4C: 0.645
S9K: 0.318
N6Y: -0.782
S8Q: 0.54
S9H: 0.234
N2D: 0.0766
S9N: 0.383
F11Q: 0.122
N2W: 0.506
A3C: 0.391
R5H: 0.0331
F11M: 0.275
A12G: 0.0849
L7D: 0.592
A3D: 0.0296

Mixed results
PhoQ, residues 284 288 289 292 302 303 SIHLQL — fold induction (PhoP, residues 12 14 15 18 19 GQAIL (Escherichia coli, UniProt P23836); Sort-seq, item: YFP reporter; E. coli; PhoQ-PhoP variant library, together with: 10 µM Mg2+; baseline: high Mg2+ state, higher = stronger signaling): 9.94
